Measurements collected from several papers.
Parts stem from different laboratories: compare values within a part only. Positions count from the first letter of the parent shown.

Study 1
Target: RING finger protein unkempt homolog, zinc fingers 1-6, GST-SBP tag (UNK, Homo sapiens, UniProt Q9C0B0, residues 30-357)
Sequence of UniProt Q9C0B0 (30-357, looked up): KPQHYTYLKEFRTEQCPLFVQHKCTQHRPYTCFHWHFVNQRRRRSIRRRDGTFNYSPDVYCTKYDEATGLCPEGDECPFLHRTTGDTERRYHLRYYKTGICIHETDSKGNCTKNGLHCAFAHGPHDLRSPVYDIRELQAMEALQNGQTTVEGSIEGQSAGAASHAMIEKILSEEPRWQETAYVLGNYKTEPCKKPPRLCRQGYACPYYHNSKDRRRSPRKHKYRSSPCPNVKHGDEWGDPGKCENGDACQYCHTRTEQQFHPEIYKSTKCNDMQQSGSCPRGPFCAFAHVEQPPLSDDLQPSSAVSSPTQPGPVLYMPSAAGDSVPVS
Method: RNA Bind-n-Seq
Molecule type: RNA
Matrix: in vitro
Tested at: not given
Notes: RNA with constant flanks, ends assumed
Relative to: input RNA pool
Reading: higher = stronger binding
Sequence	bound/input enrichment [ratio]
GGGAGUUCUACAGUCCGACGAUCUCAUGGAACUUAUGUGUCAAAACAAAGGAACGGGCAGACUGUCCAUCCCAAGCCAGUUCAAUCCGAUGUAAAUUCAUACUGUUUUAAUUUUUUAUGCAAUCUGAUGAGUAGAUGGGCUCACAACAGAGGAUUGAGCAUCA	0.31
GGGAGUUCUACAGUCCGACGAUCCUAAAAAAGAGAAUAACAUGAAAACGCCCAGGGUUACUUGAAUGUUUUUAUAAGACCGGAAUAUAUGUCUUCACCAUGGGGGGGGUCUCGAUUUCACUAACGUUGUAUAUGAAAAUGUCUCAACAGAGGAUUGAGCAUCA	0.35
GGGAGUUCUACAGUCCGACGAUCGAGGUUGUUAAGGACAAAGCAGGACCUCAUAAGGAAAUCUACCCCUAUGUCAUCCAGGAACUCCGACCAACUUUAAAUGAACUGGGAAUCUCCACUCCGGAGGAACUGGGCCUUGACAAACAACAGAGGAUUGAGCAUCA	0.162
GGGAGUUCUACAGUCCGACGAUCCUUCUCUAACUUUUUCAGUUCACAAUUUACUUGGUCCAGAUUUUCUAUUCUUUUUUUUUAACCCGUAAAUGAAAUUUACAUACUUCAUAAAAUUAUGAACAGAUAGCGCAUUGGGCUCUGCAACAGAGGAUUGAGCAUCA	0.722
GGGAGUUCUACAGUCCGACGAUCGCAACUUGGAAAGACUAUCUUUCAAGCUUCAAUUCUUACCUGACUAAGUCUGCUGAUUUUACCGAACAAUCUGUUUUUUACUGGGAACAGAUGACAGAUGGGUUUUUCAUUUUUGGUGAACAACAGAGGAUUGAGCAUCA	0.188
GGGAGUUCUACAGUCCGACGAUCGAUCAGAUUUCAACCUGGGACUGGAUUACAGAGGAUUGUUUCUAAUAACAACAUCAAUAUUCCCGAAGUCCCUGACAGCCUAGAAAUAAGCUGUUUGUCUUCUAUAAAGCAUUGCUAUAGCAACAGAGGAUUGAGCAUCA	0.123
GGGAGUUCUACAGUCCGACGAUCUGACUGUUAUGAUUAUCAGAAUGUCUUAACUUUUUAGGGCAAAGUUAACACUGAAAGUUCCCGCUUAAGUGUUGAAACUUUUGUGGGAAAAAAAAAUCACUUUUGAAACUCAGACUUCAGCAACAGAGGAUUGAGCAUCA	0.185
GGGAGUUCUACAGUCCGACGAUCUGGUAUACAGACCAGUUUUAGGACUGGUAAUCCAACAGGGACUUACCAGAAUGGUUAUGACCGCACUCAGCAAUACGGAAGUAAUGUUCCAAAUAUGCACAAUGGUAUGAACCAACAGGCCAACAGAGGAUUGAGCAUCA	0.127

Study 2
Target: CCND3, cyclin fold, Cln2 fusion (human)
Method: yeast growth competition, sequencing
Matrix: yeast
Notes: weak parent motif
Relative to: not given
Reading: higher = stronger binding
Starting sequence: WEE1 docking peptide (human); HKTFRKLRLFDTP
Variant	normalised enrichment score
T3F	0.0947
K6Q	0.124
H1C	0.114
K2W	0.173
D11A	0.12
H1T	0.221
F10P	0.134
F10R	0.149
P13W	0.129
R5Q	0.0681
T12F	0.164
R5H	0.287
R8N	0.0812
H1D	0.131
R5S	0.0959
F10C	0.191
L7T	0.206
T3W	0.0819
R8F	-0.0357
T3M	0.0349
T12Y	0.137
R5C	0.00388
L7M	0.0958
D11Q	0.269
T3Y	-0.0427

Study 3
Target: RNA binding protein fox-1 homolog 2, RRM domain, GST-SBP tag (RBFOX2, Homo sapiens, UniProt O43251-10, residues 100-194)
Method: RNA Bind-n-Seq
Molecule type: RNA
Matrix: in vitro
Tested at: 365 nM
Notes: natural RNA segment, single round, ends assumed
Relative to: no-protein control
Reading: higher = stronger binding
Residues (chain): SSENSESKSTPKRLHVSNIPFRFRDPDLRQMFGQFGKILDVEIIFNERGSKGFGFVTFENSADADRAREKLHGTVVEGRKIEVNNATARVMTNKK
Sequence	RBNS enrichment (R)
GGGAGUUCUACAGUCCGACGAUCUGGCUCUUACACCCAUUCCAAAUGCAGUUUAUUUUUAGACCCGAUUGCAAAUAGUGAUGUAGUUUUAACCAGUAUGGAUUAGUUCAGGGAUGAACUGCUCCCUCUAGCCUUGGAAUUCUCGGGUGCCAA	0.312
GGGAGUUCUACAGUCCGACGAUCAUCAAACGGAAGACGGCAGGCCCUGUCCUUCCACUCAGGUGCUGCUUGCAGUGCUCCUCAACAGAGGGAGAGUCUCCCUAAGAUUUCCAUGUUCCUAGACAAAGUCCUAAUGGAAUUCUCGGGUGCCAA	0.242
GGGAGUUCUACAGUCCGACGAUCACCUGAGGUCAAGAGUUCGAGACCAGCCUGACCAACUUGGAGAAAUGCCAUCUCAACUGAAAAUACAAAAUUAGCUGGGUGUGGUGGUGCAUGCCUGUAAUCCCAGGUACUGGAAUUCUCGGGUGCCAA	1.93
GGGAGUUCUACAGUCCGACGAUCUCCCAUGUGUAUUUUCUUACAUACUGUGAAUGUGAAGACCCUAACUGGUACACUUGAUCUUAUGUCCAUAUGAAAGUGCAAAUCUUUAUUAAUUUGGAUUGCCUGAGCAGUGGAAUUCUCGGGUGCCAA	0.601
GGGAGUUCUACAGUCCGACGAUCCUGGAGCUGGCCAUCCCAAAUUCAAUCAGUCCAUAGAGACGAACAGAAUGAGACCUUCCGGCCCAAGCGUGGCGCUGCGGGCACUUUGGUAGACUGUGCCACCACGGCGUUGGAAUUCUCGGGUGCCAA	0.369
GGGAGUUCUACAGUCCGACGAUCUUUAAAAUACUUUGCGCCUUGCUUUGAUAAUUUGUAUUAUGUAUCCAAACUGAAAUUAUCUGCUUUCUGCAUUAGAAUGUAAGCCCCCUGAGGGUUGAGUCAGUCUGUCUUGGAAUUCUCGGGUGCCAA	0.413
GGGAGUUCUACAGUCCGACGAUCACAGCCCCCUACCCGUCCCCCUCGCCUCACACGGUCCCUCUCCGAGGCCGAGAAGACCUUCUGUUCCUGUAAAUACAGCCAGCAAGUGCAAACUGUGAUUUUAUUUUCCAUGGAAUUCUCGGGUGCCAA	0.387
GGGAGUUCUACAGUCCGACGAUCCCCUCGCCCAGGCCGGGGCUGGAGGGAUUCGGCCGCGGCUCCGGUCCUGGGCGCUUCCCUUUUAAGCAAGGGCGCCUCACCUGCUCUUCAAGAAACAGCGAGAGGGAGACUGGAAUUCUCGGGUGCCAA	0.346
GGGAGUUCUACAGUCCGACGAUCGAGGUGAGGCCUAAGUAUGAGGCACCUGAAGAUAAAACCAAUGGGCAGAACCAAUGGCCCCAGUCGGCUUUUGAGGUCUUGGUGAGAAGUACUGGCCACGAAAGGGUCUUUGGAAUUCUCGGGUGCCAA	2.27

Study 4
Target: Ras GTPase-activating protein-binding protein 1, full length (G3BP1, Homo sapiens, UniProt Q13283)
Sequence of UniProt Q13283 (whole entry, looked up): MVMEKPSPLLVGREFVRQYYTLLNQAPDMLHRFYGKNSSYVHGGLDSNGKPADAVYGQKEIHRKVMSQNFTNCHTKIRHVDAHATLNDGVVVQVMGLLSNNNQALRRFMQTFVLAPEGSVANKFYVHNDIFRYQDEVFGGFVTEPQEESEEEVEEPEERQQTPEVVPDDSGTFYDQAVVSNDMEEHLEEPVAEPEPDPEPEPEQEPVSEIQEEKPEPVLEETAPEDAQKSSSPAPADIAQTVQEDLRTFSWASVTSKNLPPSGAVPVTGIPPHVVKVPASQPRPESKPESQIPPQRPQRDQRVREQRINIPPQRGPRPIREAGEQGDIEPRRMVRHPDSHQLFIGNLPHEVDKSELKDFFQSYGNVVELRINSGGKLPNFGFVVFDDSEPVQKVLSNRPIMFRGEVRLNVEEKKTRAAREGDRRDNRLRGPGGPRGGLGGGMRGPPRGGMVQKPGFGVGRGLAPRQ
Method: RNA Bind-n-Seq
Molecule type: RNA
Matrix: in vitro
Tested at: 200 nM
Notes: whole 134-nt RNA, ends assumed
Added: 150 mM KCl
Relative to: input library
Reading: higher = stronger binding
Sequence	log2 enrichment
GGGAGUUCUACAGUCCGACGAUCCACAGACAACACGCACCAAAACAGACACAGAGGGAAGGGGUUGGGAUGGGGACAGGGUGCACAGCAGGGCGGGGUAGGACCCCAGCCCCUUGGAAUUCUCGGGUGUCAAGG	1.78
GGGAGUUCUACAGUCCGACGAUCUGAACCUUCCAAUAGCAACCAAGAAAUAAACUCUGAUGACAGACGACCCCAAUGGAGACGAGAAGACCGAAUUCCUUACCAAGACAGAGAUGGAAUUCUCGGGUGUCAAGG	0.282
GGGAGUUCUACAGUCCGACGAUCGUCCUGUGCUACACAUCGUAUGUACCGAAUCGGAAAAAAAGGAAAAAAAGGAAAAAGGAAAGUAUUAUGUUACGCCGUUCGGAUCUGCACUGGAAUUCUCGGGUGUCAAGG	-0.829
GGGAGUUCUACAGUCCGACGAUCCCUGUGCUACACAUCGUAUGUACCGAAUCGGCCCCCCCGGGGCCCCCCCGGGCCCCCCCGGAAAGUAUUAUGUUACGCCGUUCGGAUCUGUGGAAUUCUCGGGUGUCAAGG	-0.445
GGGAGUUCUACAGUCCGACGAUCUAUUAAUUUGAUAUAUUUAUUAUGAUUUGUAGAGGACGUCGGUGAUGAAGGAGAAGAAGAAAAAGAAUUCAUUUCCUAUAACAUCAACAUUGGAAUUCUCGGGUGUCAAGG	-1.71
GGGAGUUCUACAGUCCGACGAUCGCAGGAAGUAAAAACAAAUGGAAAUACUUCGGAUAGUGGCAGGGGUGGGGGUUGCUAAGGAAAGGGUGGGAUGGGAGUGGGUAAAGAGUUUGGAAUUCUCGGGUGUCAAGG	0.832
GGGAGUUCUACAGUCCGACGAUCAAGUCCUGUGCUACACAUCGUAUGUACCGAAUCGGGGAAAGGGGAGGGGUUUGGGGAAAGUAUUAUGUUACGCCGUUCGGAUCUGCACUUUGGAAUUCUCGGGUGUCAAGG	0.28
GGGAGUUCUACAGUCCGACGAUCGCAGGAAGUAAAAACAAAUGGAAAUGCUUCGGAUAGUGGCAGGGGUGGGGGUUGCUAAGGAAAGGGAAAGAUGGGAGUGGGUAAAGAGUUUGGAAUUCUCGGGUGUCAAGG	0.586
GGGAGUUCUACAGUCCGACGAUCUCCUCAAGUCCUGUGCUACACAUCGUAUGUACCGAAUCGGAGGGGAGGGAGGAAAGUAUUAUGUUACGCCGUUCGGAUCUGCACUUCCAGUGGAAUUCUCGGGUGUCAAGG	0.22
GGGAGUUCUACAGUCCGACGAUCCCAGGAAGUAAAAACAAAUGGAAAUGCUUCGGAUAGUGGCAGGGGUGGGGGUUGCUAAGGAAAGGGUGGGAUGGGAGUGGGUAAAGAGUUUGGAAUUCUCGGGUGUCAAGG	1.1

For quick reference, copied from above (study 2):
Variant	normalised enrichment score
T3W	0.0819
R5C	0.00388
L7T	0.206
D11Q	0.269
H1C	0.114
